Assay results from different studies.
Each line is one published result; not all experiments were run side by side. Numbers after ± are the reported error.
cofactor-independent phosphoglycerate mutase W431C: cofactor-independent phosphoglycerate mutase (Metamycoplasma orale, UniProt A0A448ZXM1, W431C)

Structure (SMILES) = N=C(N)NCCC[C@@H]1NC(=O)[C@H](CCCCNC(=O)CCOCCOCCOCCOCCNC(=O)CC[C@H](NC(=O)CCOCCOCCOCCOCCNC(=O)[C@H](CCCCNC(=O)c2ccc(NN)nc2)NC(=O)c2ccc(NN)nc2)C(=O)NCCOCCOCCOCCOCCC(=O)NCCCC[C@@H]2NC(=O)[C@@H](Cc3ccccc3)NC(=O)[C@H](CC(=O)O)NC(=O)CNC(=O)[C@H](CCCNC(=N)N)NC2=O)NC(=O)[C@@H](Cc2ccccc2)NC(=O)[C@H](CC(=O)O)NC(=O)CNC1=O [technetium-99m labelled]; assay = SPECT/CT; test system = female athymic nu/nu mice, glioma xenograft, tumour; setting = intravenous, 60 min, tumour volume about 0.2 cm3; endpoint = tissue uptake; value = ~7.5 %ID/mL
Structure (SMILES) = N=C(N)NCCC[C@@H]1NC(=O)[C@H](CCCCNC(=O)CNC(=O)CNC(=O)CNC(=O)CC[C@H](NC(=O)CCOCCOCCOCCOCCNC(=O)CC[C@H](NC(=O)CN2CCN(CC(=O)O)CCN(CC(=O)O)CCN(CC(=O)O)CC2)C(=O)NCCOCCOCCOCCOCCC(=O)N[C@@H](CCC(=O)NCC(=O)NCC(=O)NCC(=O)NCCCC[C@@H]2NC(=O)[C@@H](Cc3ccccc3)NC(=O)[C@H](CC(=O)O)NC(=O)CNC(=O)[C@H](CCCNC(=N)N)NC2=O)C(=O)NCC(=O)NCC(=O)NCC(=O)NCCCC[C@@H]2NC(=O)[C@@H](Cc3ccccc3)NC(=O)[C@H](CC(=O)O)NC(=O)CNC(=O)[C@H](CCCNC(=N)N)NC2=O)C(=O)NCC(=O)NCC(=O)NCC(=O)NCCCC[C@@H]2NC(=O)[C@@H](Cc3ccccc3)NC(=O)[C@H](CC(=O)O)NC(=O)CNC(=O)[C@H](CCCNC(=N)N)NC2=O)NC(=O)[C@@H](Cc2ccccc2)NC(=O)[C@H](CC(=O)O)NC(=O)CNC1=O [indium-111 labelled]; test system = female athymic nude mice, brain; setting = intravenous, 3 µCi, 0.5 h, U-87 MG glioma xenograft; endpoint = tissue uptake; value = 0.2 ± 0.1 %ID/g
Structure (SMILES) = COc1ccc(C[C@@H]2NC(=O)[C@H](Cc3ccc(O)cc3)NC(=O)[C@H](CO)NC(=O)[C@H](CC(=O)O)NC(=O)[C@H](Cc3ccc(O)cc3)NC(=O)[C@H](Cc3c[nH]c4ccccc34)NC(=O)[C@@H](Cc3ccc(O)cc3)NC(=O)CSC[C@@H](C(N)=O)NC(=O)[C@H]([C@@H](C)O)NC(=O)[C@H](Cc3ccc(O)cc3)NC(=O)[C@H](CCC(N)=O)NC(=O)[C@H](C)NC(=O)[C@H]([C@@H](C)O)NC(=O)CNC(=O)[C@@H]3CCCN3C(=O)[C@H](Cc3ccc(O)cc3)NC2=O)cc1; target or system = cofactor-independent phosphoglycerate mutase W431C; assay = biochemical; test system = Mycoplasma orale; endpoint = AC50; value = 19.1 µM
Structure (SMILES) = N=C(N)NCCC[C@@H]1NC(=O)[C@H](CCCCNC(=O)CCOCCOCCOCCOCCNC(=O)CC[C@H](NC(=O)CCOCCOCCOCCOCCNC(=O)CC[C@H](NC(=O)CN2CCN(CC(=O)O)CCN(CC(=O)O)CCN(CC(=O)O)CC2)C(=O)NCCOCCOCCOCCOCCC(=O)N[C@@H](CCC(=O)NCCOCCOCCOCCOCCC(=O)NCCCC[C@@H]2NC(=O)[C@@H](Cc3ccccc3)NC(=O)[C@H](CC(=O)O)NC(=O)CNC(=O)[C@H](CCCNC(=N)N)NC2=O)C(=O)NCCOCCOCCOCCOCCC(=O)NCCCC[C@@H]2NC(=O)[C@@H](Cc3ccccc3)NC(=O)[C@H](CC(=O)O)NC(=O)CNC(=O)[C@H](CCCNC(=N)N)NC2=O)C(=O)NCCOCCOCCOCCOCCC(=O)NCCCC[C@@H]2NC(=O)[C@@H](Cc3ccccc3)NC(=O)[C@H](CC(=O)O)NC(=O)CNC(=O)[C@H](CCCNC(=N)N)NC2=O)NC(=O)[C@@H](Cc2ccccc2)NC(=O)[C@H](CC(=O)O)NC(=O)CNC1=O [indium-111 labelled]; test system = female athymic nude mice, blood; setting = intravenous, 3 µCi, 4 h, U-87 MG glioma xenograft; endpoint = tissue uptake; value = 0.2 ± 0.02 %ID/g
Structure (SMILES) = CC(C)C[C@@H]1NC(=O)[C@H](C(C)C)NC(=O)[C@H](CO)NC(=O)CNC(=O)CNC(=O)[C@H](CCCNC(=N)N)NC(=O)[C@@H]2CCCN2C(=O)[C@@H](NC(=O)CC[C@H](NC(=O)c2ccc(N(C)Cc3cnc4nc(N)nc(N)c4n3)cc2)C(=O)O)C(C)(C)SSC[C@@H](C(=O)O)NC(=O)CNC(=O)[C@H]([C@@H](C)O)NC(=O)[C@H](C(C)C)NC1=O; assay = HPLC; test system = Phosphate buffer; setting = pH 6.0, 70 °C; endpoint = degradation rate constant; value = 0.0009 h⁻¹
Structure (SMILES) = N=C(N)NCCC[C@@H]1NC(=O)[C@H](CCCCNC(=O)CC[C@H](NC(=O)CCOCCOCCOCCOCCNC(=O)CC[C@H](NC(=O)CN2CCN(CC(=O)O)CCN(CC(=O)O)CCN(CC(=O)O)CC2)C(=O)NCCOCCOCCOCCOCCC(=O)N[C@@H](CCC(=O)NCCCC[C@@H]2NC(=O)[C@@H](Cc3ccccc3)NC(=O)[C@H](CC(=O)O)NC(=O)CNC(=O)[C@H](CCCNC(=N)N)NC2=O)C(=O)NCCCC[C@@H]2NC(=O)[C@@H](Cc3ccccc3)NC(=O)[C@H](CC(=O)O)NC(=O)CNC(=O)[C@H](CCCNC(=N)N)NC2=O)C(=O)NCCCC[C@@H]2NC(=O)[C@@H](Cc3ccccc3)NC(=O)[C@H](CC(=O)O)NC(=O)CNC(=O)[C@H](CCCNC(=N)N)NC2=O)NC(=O)[C@@H](Cc2ccccc2)NC(=O)[C@H](CC(=O)O)NC(=O)CNC1=O [indium-111 labelled]; test system = female athymic nude mice, brain; setting = intravenous, 3 µCi, 0.5 h, U-87 MG glioma xenograft; endpoint = tissue uptake; value = 0.1 ± 0.01 %ID/g
Structure (SMILES) = C[C@@H](O)[C@@H]1NC(=O)[C@H](CC(=O)O)NC(=O)[C@@H]2CCCN2C(=O)[C@H](Cc2ccc(O)cc2)NC(=O)CSC[C@@H](C(N)=O)NC(=O)[C@H](Cc2c[nH]cn2)NC(=O)[C@H](Cc2c[nH]c3ccccc23)NC(=O)[C@H](CCC(=O)O)NC(=O)[C@H](CC(=O)O)NC(=O)[C@H](Cc2ccc(O)cc2)NC(=O)[C@H](Cc2ccc(O)cc2)NC(=O)[C@H](Cc2c[nH]c3ccccc23)NC(=O)[C@H](Cc2c[nH]c3ccccc23)NC(=O)[C@H](CC(N)=O)NC1=O; target or system = cofactor-independent phosphoglycerate mutase W431C; assay = biochemical; test system = Mycoplasma orale; endpoint = AC50; value = 3.31 µM
Structure (SMILES) = O=P(O)(O)Oc1ccc(Oc2ccc(S(=O)(=O)CC3CS3)cc2)cc1 (racemic); target or system = MMP14 (Homo sapiens, UniProt P50281); assay = enzyme activity, inhibitor; endpoint = Ki; value = 32.6 µM
Structure (SMILES) = N=C(N)NCCC[C@@H]1NC(=O)[C@H](CCCCNC(=O)CNC(=O)CNC(=O)CNC(=O)CC[C@H](NC(=O)c2ccc(NN=Cc3ccccc3S(=O)(=O)O)nc2)C(=O)NCC(=O)NCC(=O)NCC(=O)NCCCC[C@@H]2NC(=O)[C@@H](Cc3ccccc3)NC(=O)[C@H](CC(=O)O)NC(=O)CNC(=O)[C@H](CCCNC(=N)N)NC2=O)NC(=O)[C@@H](Cc2ccccc2)NC(=O)[C@H](CC(=O)O)NC(=O)CNC1=O [technetium-99m labelled]; assay = gamma counting; test system = female athymic nu/nu mice, MDA-MB-435 breast cancer xenograft, tumour; setting = intravenous, 120 min post-injection; endpoint = tumour uptake; value = 9.11 ± 1.83 %ID/g
Structure (SMILES) = CN[C@](C)(C[18F])C(=O)O; target or system = A549 tumour model; test system = host not given, blood; setting = 30 min, tumour-bearing; endpoint = tracer uptake; value = 1.8 %ID/g
Structure (SMILES) = CCCC[C@H](NC(=O)CCCCCCCNC(=O)c1ccc(NN)nc1)C(=O)N[C@H]1CC(=O)NCCCC[C@@H](C(N)=O)NC(=O)[C@H](Cc2c[nH]c3ccccc23)NC(=O)[C@H](CCCNC(=N)N)NC(=O)[C@@H](Cc2ccccc2)NC(=O)[C@H](Cc2c[nH]cn2)NC1=O [technetium-99m labelled]; test system = C57 mouse, B16/F1 melanoma, blood; setting = intravenous, 4 h; endpoint = uptake; value = 0.3 ± 0.14 %ID/g
Structure (SMILES) = N=C(N)NCCC[C@@H]1NC(=O)[C@H](CCCCNC(=O)CCOCCOCCOCCOCCNC(=O)CN2CCN(CC(=O)O)CCN(CC(=O)O)CCN(CC(=O)O)CC2)NC(=O)[C@@H](Cc2ccccc2)NC(=O)[C@H](CC(=O)O)NC(=O)CNC1=O [indium-111 labelled]; test system = athymic nude mice, female, U-87 MG glioma xenograft, U-87 MG tumour; setting = intravenous, 3 µCi, 24 h; endpoint = tissue uptake; value = 1.43 ± 0.09 %ID/g
Structure (SMILES) = CCCC[C@H](NC(=O)CNC(=O)CNC(=O)c1ccc(NN)nc1)C(=O)N[C@H]1CC(=O)NCCCC[C@@H](C(N)=O)NC(=O)[C@H](Cc2c[nH]c3ccccc23)NC(=O)[C@H](CCCNC(=N)N)NC(=O)[C@@H](Cc2ccccc2)NC(=O)[C@H](Cc2c[nH]cn2)NC1=O [technetium-99m labelled]; test system = C57 mouse, B16/F1 melanoma-bearing; setting = intravenous, 24 h; scale = relative to: tumour over kidney; endpoint = tissue uptake ratio; value = 3.55
Structure (SMILES) = CCCC[C@H](NC(=O)CNC(=O)CNC(=O)CNC(=O)c1ccc(NN)nc1)C(=O)N[C@H]1CC(=O)NCCCC[C@@H](C(N)=O)NC(=O)[C@H](Cc2c[nH]c3ccccc23)NC(=O)[C@H](CCCNC(=N)N)NC(=O)[C@@H](Cc2ccccc2)NC(=O)[C@H](Cc2c[nH]cn2)NC1=O [technetium-99m labelled]; test system = C57 mouse, B16/F1 melanoma, bone; setting = intravenous, 2 h; endpoint = uptake; value = 0.08 ± 0.06 %ID/g
Structure (SMILES) = CC(C)C[C@H](NC(=O)[C@@H]1CCCN1C(=O)[C@H](CCCCN)NC(=O)[C@@H](N)CO)C(=O)N1CCC[C@H]1C(=O)N[C@@H](CCC(=O)O)C(=O)N[C@H](C(=O)N[C@H](C(=O)N[C@@H](CC(=O)O)C(=O)N[C@@H](CCC(=O)O)C(=O)N[C@@H](Cc1ccc(O)cc1)C(=O)N[C@@H](Cc1cn(CCOCCOCCOCCNC(=O)CCc2ccc(O)c(CN(CCN(CC(=O)O)Cc3cc(CCC(=O)NCCCC[C@H](NC(=O)N[C@@H](CCC(=O)O)C(=O)O)C(=O)O)ccc3O)CC(=O)O)c2)nn1)C(=O)O)[C@@H](C)O)C(C)C [gallium-68 labelled]; assay = PET; test system = NMRI nu/nu mouse, LNCaP xenograft; endpoint = time to maximum tumour uptake; value = 2 h
Structure (SMILES) = CCCNC(=O)[C@H](CC(C)C)NC(=O)[C@H](Cc1c[nH]cn1)NC(=O)CNC(=O)[C@@H](NC(=O)[C@H](C)NC(=O)[C@H](Cc1c[nH]c2ccccc12)NC(=O)[C@H](CCC(N)=O)NC(=O)[C@@H](Cc1ccccc1)NC(=O)CCCCCNC(=O)CN1CCN(CC(=O)O)CCN(CC(=O)O)CCN(CC(=O)O)CC1)C(C)C [indium-111 labelled]; assay = biodistribution, ligand; test system = CF-1 mouse; setting = intravenous, dose not given, 1 h, together with: 100 µg bombesin blocking; endpoint = excretion; value = 91.25 ± 0.44 %ID
Structure (SMILES) = CCCC[C@H](NC(=O)[C@H](Cc1cccs1)NC(=O)[C@H](Cc1c[nH]cn1)NC(=O)CCNC(=O)[C@@H](NC(=O)[C@H](C)NC(=O)[C@H](Cc1c[nH]c2ccccc12)NC(=O)[C@H](CCC(N)=O)NC(=O)[C@H](Cc1cccs1)NC(=O)CN1CCC(NC(=O)CN(CCN(CCN(CC(=O)O)CC(=O)O)CC(=O)O)CC(=O)O)CC1)C(C)C)C(N)=O [indium-111 labelled]; assay = radio-HPLC; test system = male Swiss nu/nu mice, blood; setting = intravenous, 1 nmol, 5 min; endpoint = intact peptide; value = 9.8 ± 0.5%

For quick reference, copied from above:
Structure (SMILES) = C[C@@H](O)[C@@H]1NC(=O)[C@H](CC(=O)O)NC(=O)[C@@H]2CCCN2C(=O)[C@H](Cc2ccc(O)cc2)NC(=O)CSC[C@@H](C(N)=O)NC(=O)[C@H](Cc2c[nH]cn2)NC(=O)[C@H](Cc2c[nH]c3ccccc23)NC(=O)[C@H](CCC(=O)O)NC(=O)[C@H](CC(=O)O)NC(=O)[C@H](Cc2ccc(O)cc2)NC(=O)[C@H](Cc2ccc(O)cc2)NC(=O)[C@H](Cc2c[nH]c3ccccc23)NC(=O)[C@H](Cc2c[nH]c3ccccc23)NC(=O)[C@H](CC(N)=O)NC1=O; target or system = cofactor-independent phosphoglycerate mutase W431C; assay = biochemical; test system = Mycoplasma orale; endpoint = AC50; value = 3.31 µM
Structure (SMILES) = O=P(O)(O)Oc1ccc(Oc2ccc(S(=O)(=O)CC3CS3)cc2)cc1 (racemic); target or system = MMP14 (Homo sapiens, UniProt P50281); assay = enzyme activity, inhibitor; endpoint = Ki; value = 32.6 µM
